Measured values of several laboratories.
Parts stem from different laboratories: compare values within a part only. Values joined by “and” are separate records of one study, mostly repeats; a detail may differ.
Chain of UniProt Q8N5S9 (whole entry, looked up): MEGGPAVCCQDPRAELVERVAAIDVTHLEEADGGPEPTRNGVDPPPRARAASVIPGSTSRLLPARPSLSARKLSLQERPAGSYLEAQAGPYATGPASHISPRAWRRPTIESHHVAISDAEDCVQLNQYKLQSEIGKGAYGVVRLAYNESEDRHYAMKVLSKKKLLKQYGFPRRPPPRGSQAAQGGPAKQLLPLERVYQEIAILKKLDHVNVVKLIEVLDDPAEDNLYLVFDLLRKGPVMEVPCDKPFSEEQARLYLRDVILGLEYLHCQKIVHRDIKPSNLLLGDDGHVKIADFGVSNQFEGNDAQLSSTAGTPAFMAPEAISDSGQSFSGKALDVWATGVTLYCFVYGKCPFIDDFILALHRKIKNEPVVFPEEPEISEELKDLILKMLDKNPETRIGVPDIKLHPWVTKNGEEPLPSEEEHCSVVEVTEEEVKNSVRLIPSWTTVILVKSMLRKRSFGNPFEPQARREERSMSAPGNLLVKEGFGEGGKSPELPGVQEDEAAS
Chain of UniProt P48730 (whole entry, looked up): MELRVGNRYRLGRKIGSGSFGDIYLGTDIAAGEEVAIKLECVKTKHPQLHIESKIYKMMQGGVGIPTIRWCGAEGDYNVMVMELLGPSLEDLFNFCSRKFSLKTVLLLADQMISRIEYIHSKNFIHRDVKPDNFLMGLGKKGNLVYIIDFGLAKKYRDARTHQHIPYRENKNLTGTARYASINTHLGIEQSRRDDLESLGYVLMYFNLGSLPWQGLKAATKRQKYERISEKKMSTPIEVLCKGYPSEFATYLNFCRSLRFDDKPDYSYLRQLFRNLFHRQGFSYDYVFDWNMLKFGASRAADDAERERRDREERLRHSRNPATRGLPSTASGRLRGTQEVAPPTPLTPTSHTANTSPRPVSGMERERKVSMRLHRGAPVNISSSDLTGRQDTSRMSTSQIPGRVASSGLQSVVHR
Chain of UniProt O75914 (whole entry, looked up): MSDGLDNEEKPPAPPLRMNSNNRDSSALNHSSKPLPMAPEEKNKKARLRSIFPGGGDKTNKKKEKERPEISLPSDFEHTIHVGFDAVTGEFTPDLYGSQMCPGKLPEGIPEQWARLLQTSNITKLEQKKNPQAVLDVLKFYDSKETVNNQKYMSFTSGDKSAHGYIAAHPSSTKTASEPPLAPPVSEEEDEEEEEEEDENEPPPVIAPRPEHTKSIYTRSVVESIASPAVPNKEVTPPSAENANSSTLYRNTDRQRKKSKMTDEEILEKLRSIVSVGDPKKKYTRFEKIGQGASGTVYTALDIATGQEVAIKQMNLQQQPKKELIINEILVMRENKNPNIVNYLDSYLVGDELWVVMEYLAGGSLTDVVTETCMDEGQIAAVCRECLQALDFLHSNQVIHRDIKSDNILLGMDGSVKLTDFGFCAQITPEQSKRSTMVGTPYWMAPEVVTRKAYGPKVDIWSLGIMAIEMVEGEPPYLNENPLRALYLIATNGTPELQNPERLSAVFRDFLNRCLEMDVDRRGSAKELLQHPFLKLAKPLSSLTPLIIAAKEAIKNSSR
Chain of UniProt P49685 (whole entry, looked up): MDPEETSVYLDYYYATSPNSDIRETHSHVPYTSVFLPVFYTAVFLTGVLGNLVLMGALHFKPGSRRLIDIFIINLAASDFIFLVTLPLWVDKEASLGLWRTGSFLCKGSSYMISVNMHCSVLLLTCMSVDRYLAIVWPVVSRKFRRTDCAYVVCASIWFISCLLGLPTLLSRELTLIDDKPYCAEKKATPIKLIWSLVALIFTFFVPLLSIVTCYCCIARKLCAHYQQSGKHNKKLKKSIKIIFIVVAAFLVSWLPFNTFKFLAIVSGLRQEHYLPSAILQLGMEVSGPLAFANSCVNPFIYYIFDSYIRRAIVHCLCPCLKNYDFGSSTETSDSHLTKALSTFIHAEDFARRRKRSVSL
Chain of UniProt Q14833 (whole entry, looked up): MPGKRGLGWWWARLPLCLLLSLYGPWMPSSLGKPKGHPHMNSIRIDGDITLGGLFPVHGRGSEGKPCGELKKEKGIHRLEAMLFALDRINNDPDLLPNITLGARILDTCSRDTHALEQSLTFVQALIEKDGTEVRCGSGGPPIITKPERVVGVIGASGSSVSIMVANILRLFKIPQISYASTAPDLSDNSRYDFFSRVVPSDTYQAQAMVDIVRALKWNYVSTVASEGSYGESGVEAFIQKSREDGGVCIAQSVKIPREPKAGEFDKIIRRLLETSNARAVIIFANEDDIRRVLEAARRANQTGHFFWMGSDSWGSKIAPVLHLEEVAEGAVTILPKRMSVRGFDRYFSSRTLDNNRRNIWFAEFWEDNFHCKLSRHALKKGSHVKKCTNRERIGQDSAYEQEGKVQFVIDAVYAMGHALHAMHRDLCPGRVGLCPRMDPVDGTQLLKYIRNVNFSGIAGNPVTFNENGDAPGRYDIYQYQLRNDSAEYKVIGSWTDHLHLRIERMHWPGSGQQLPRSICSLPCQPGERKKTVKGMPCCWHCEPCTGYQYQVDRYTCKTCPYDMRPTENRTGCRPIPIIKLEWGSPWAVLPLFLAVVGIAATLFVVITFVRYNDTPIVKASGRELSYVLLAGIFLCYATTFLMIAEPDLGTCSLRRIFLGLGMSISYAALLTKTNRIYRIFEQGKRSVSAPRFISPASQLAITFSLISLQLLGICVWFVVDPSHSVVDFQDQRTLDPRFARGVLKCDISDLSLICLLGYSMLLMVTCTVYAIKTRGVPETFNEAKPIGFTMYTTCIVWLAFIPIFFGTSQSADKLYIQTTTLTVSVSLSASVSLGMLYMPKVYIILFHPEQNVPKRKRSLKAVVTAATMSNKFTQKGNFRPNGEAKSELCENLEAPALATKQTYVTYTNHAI
Chain of UniProt Q04759 (whole entry, looked up): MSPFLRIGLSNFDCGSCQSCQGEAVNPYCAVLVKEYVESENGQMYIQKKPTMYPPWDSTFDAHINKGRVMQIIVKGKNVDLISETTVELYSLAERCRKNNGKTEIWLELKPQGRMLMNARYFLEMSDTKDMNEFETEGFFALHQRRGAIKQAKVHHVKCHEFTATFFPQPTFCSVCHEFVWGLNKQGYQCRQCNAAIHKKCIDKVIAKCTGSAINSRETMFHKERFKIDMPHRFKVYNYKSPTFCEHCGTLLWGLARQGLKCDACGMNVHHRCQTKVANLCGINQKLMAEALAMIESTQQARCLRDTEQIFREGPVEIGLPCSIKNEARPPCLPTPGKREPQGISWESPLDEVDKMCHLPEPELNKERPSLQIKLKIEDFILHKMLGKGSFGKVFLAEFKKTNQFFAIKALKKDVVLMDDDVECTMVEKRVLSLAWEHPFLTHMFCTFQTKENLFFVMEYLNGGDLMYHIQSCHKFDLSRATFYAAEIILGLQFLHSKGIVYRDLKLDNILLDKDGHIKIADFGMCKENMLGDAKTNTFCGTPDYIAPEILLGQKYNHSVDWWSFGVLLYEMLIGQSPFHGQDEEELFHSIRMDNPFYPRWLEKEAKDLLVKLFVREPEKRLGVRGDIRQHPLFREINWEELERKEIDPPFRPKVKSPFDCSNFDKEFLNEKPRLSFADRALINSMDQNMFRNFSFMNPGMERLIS
Chain of UniProt P30968 (whole entry, looked up): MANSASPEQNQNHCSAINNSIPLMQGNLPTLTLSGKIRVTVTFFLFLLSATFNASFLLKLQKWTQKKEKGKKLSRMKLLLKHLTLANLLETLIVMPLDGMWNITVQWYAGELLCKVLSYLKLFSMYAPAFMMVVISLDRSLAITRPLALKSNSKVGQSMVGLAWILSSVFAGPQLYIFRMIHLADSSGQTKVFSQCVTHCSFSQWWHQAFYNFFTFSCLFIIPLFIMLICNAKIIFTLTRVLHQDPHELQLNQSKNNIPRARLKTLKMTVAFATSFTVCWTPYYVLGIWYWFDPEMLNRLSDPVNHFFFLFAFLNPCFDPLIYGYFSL
Chain of UniProt P42680 (whole entry, looked up): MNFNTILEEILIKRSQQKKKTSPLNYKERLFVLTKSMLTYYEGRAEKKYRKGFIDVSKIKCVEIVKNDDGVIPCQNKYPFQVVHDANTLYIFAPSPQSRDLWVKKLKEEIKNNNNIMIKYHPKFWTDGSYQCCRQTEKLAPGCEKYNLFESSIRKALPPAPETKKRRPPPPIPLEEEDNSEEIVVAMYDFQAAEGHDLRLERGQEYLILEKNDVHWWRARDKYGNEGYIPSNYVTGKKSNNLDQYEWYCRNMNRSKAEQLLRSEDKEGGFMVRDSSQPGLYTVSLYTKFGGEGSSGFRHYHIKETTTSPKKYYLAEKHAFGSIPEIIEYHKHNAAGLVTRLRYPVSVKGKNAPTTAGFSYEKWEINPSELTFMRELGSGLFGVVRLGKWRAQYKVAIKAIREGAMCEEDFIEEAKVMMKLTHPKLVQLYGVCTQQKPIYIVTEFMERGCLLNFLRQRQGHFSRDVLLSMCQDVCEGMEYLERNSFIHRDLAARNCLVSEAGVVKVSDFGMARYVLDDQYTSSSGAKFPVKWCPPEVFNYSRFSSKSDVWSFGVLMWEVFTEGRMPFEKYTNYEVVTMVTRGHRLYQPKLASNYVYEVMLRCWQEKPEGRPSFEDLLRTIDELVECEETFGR
Chain of UniProt O15530 (whole entry, looked up): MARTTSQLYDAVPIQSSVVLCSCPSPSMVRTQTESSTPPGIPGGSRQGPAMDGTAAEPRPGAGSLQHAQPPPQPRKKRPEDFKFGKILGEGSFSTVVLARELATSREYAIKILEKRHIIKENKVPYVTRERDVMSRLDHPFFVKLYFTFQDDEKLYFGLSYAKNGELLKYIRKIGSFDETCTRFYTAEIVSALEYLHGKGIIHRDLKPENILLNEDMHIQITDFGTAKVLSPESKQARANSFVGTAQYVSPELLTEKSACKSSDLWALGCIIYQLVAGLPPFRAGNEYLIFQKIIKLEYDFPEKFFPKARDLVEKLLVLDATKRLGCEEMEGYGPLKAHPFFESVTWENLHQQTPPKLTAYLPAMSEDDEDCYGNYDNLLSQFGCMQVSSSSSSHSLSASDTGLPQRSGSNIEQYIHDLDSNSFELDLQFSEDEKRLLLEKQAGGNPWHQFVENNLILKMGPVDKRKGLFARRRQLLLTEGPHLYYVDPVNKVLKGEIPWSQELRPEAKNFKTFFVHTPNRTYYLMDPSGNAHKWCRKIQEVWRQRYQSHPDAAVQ

Block 1
Structure (SMILES): CC1=C(C#N)[C@@H](c2ccc3[nH]nc(C)c3c2)C(C#N)=C(c2ccc(Cl)cc2)N1
Read-out: cell-free assay
Technique: competition with immobilised ligand
Concentration: 1 µM
Endpoint: remaining binding
Dual specificity protein kinase CLK3 (CLK3, Homo sapiens, UniProt P49761): 100%
Protein kinase C eta type (PRKCH, Homo sapiens, UniProt P24723): 96.1%
Calcium/calmodulin-dependent protein kinase kinase 1 (CAMKK1, Homo sapiens, UniProt Q8N5S9): 93.7%
3-phosphoinositide-dependent protein kinase 1 (PDPK1, Homo sapiens, UniProt O15530): 98.2%
Testis-specific serine/threonine-protein kinase 1 (TSSK1B, Homo sapiens, UniProt Q9BXA7): 100%
Tyrosine-protein kinase Fyn (FYN, Homo sapiens, UniProt P06241): 69%
Interleukin-1 receptor-associated kinase 1 (IRAK1, Homo sapiens, UniProt P51617): 100%
Tyrosine-protein kinase ABL1, phosphorylated (ABL1, Homo sapiens, UniProt P00519, F317L): 94.2%
Phosphorylase b kinase gamma catalytic chain, liver/testis isoform (PHKG2, Homo sapiens, UniProt P15735): 100%
Serine/threonine-protein kinase PAK 3 (PAK3, Homo sapiens, UniProt O75914): 100%
Serine/threonine-protein kinase D1 (PRKD1, Homo sapiens, UniProt Q15139): 81.1%
Ribosomal protein S6 kinase alpha-1, C-terminal kinase domain (RPS6KA1, Homo sapiens, UniProt Q15418): 100%
Tyrosine-protein kinase ABL1, phosphorylated (ABL1, Homo sapiens, UniProt P00519, T315I): 88.1%
Phosphatidylinositol 4,5-bisphosphate 3-kinase catalytic subunit alpha isoform (PIK3CA, Homo sapiens, UniProt P42336): 100%
Cyclin-dependent kinase 8 (CDK8, Homo sapiens, UniProt P49336): 93.2%

Block 2
SMILES: C[C@@H]1CN(c2ccc(-c3cc(C(=O)NCCOCCOCCOCCOCCNC(=O)Cn4cc(-c5[nH]cc(C(=O)N[C@@H](CC(N)=O)c6ccc(F)c(Cl)c6)c5-c5ccc(Cl)cc5F)cn4)ccc3F)cc2NC(=O)c2c[nH]c(=O)cc2C(F)(F)F)C[C@H](C)N1C
Technique: ATPlite
Endpoint: viability
MV4-11; 4.64 µM, 5 days; baseline: DMSO: 42.3% and 35.9% and 27.8%
MV4-11 expressing HiBiT-WDR5; RPMI with 10% FBS; 1510 nM, 24 h: 108% and 87.3% and 97.2%
MV4-11; 2.15 µM, 5 days; baseline: DMSO: 53.9% and 33% and 65.3% and 54.6%
MV4-11 expressing HiBiT-WDR5; RPMI with 10% FBS; 10000 nM, 24 h: 94.2% and 88.2% and 117%
MV4-11 expressing HiBiT-WDR5; RPMI with 10% FBS; 13.3 nM, 24 h: 96.3% and 84.4% and 95%
MV4-11 expressing HiBiT-WDR5; RPMI with 10% FBS; 585 nM, 24 h: 97.4% and 104% and 117%

Block 3
Compound: NC(N)=NC(=O)c1nc(Cl)c(N2CCCCCC2)nc1N
Read-out: β-arrestin recruitment
Action: agonist
Technique: PRESTO-Tango
Concentration: 10 µM
Baseline: untreated
Endpoint: fold over basal
Gastrin-releasing peptide receptor (GRPR, Homo sapiens, UniProt P30550): 0.98 fold
Gonadotropin-releasing hormone receptor (GNRHR, Homo sapiens, UniProt P30968): 0.6 fold
C-C chemokine receptor type 1 (CCR1, Homo sapiens, UniProt P32246): 2.02
Neurotensin receptor type 1 (NTSR1, Homo sapiens, UniProt P30989): 1
Muscarinic acetylcholine receptor M4 (CHRM4, Homo sapiens, UniProt P08173): 0.73
Pyroglutamylated RF-amide peptide receptor (QRFPR, Homo sapiens, UniProt Q96P65): 0.77
Metabotropic glutamate receptor 2 (GRM2, Homo sapiens, UniProt Q14416): 0.94 fold
GPRC5C (Homo sapiens, UniProt Q9NQ84): 1.23
Metabotropic glutamate receptor 4 (GRM4, Homo sapiens, UniProt Q14833): 0.68 fold
Platelet-activating factor receptor (PTAFR, Homo sapiens, UniProt P25105): 1.1
Mas-related G-protein coupled receptor member X4 (Homo sapiens, UniProt Q96LA9): 1.34
G-protein coupled receptor 15 (Homo sapiens, UniProt P49685): 0.75

Block 4
Structure (SMILES): C[C@@H](N)[C@H]1CC[C@H](C(=O)Nc2ccncc2)CC1
Read-out: enzyme activity
Action: inhibitor
Concentration: 0.5 µM
Baseline: control
Endpoint: remaining activity
Calcium/calmodulin-dependent protein kinase type 1 (CAMK1, Homo sapiens, UniProt Q14012): 105%
Serine/threonine-protein kinase Sgk2 (SGK2, Homo sapiens, UniProt Q9HBY8): 103%
Ephrin type-A receptor 2 (EPHA2, Homo sapiens, UniProt P29317): 104%
Tyrosine-protein kinase receptor TYRO3 (TYRO3, Homo sapiens, UniProt Q06418): 97.9%
Protein kinase C theta type (PRKCQ, Homo sapiens, UniProt Q04759): 93.5%
Casein kinase I isoform epsilon (CSNK1E, Homo sapiens, UniProt P49674): 92%
SRSF protein kinase 1 (SRPK1, Homo sapiens, UniProt Q96SB4): 99%
Serine/threonine-protein kinase SIK2 (SIK2, Homo sapiens, UniProt Q9H0K1): 96.9%
Vascular endothelial growth factor receptor 1 (FLT1, Homo sapiens, UniProt P17948): 90.1%
Casein kinase I isoform delta (CSNK1D, Homo sapiens, UniProt P48730): 92.6%
Cyclin-dependent kinase 2, with cyclin E (CDK2, Homo sapiens, UniProt P24941): 95.2%
Insulin-like growth factor 1 receptor (IGF1R, Homo sapiens, UniProt P08069): 75.5%
Dual specificity protein kinase CLK1 (CLK1, Homo sapiens, UniProt P49759): 91.1%
Tyrosine-protein kinase JAK1 (JAK1, Homo sapiens, UniProt P23458): 108%
Ephrin type-A receptor 6 (EPHA6, Homo sapiens, UniProt Q9UF33): 90.5%
Protein kinase C zeta type (PRKCZ, Homo sapiens, UniProt Q05513): 99.2%
Calcium/calmodulin-dependent protein kinase kinase 1 (CAMKK1, Homo sapiens, UniProt Q8N5S9): 85.3%
Tyrosine-protein kinase Tec (TEC, Homo sapiens, UniProt P42680): 98.7%
Serine/threonine-protein kinase PAK 6 (PAK6, Homo sapiens, UniProt Q9NQU5): 92.9%

Repeated from above (block 4):
Dual specificity protein kinase CLK1 (CLK1, Homo sapiens, UniProt P49759): 91.1%
Tyrosine-protein kinase JAK1 (JAK1, Homo sapiens, UniProt P23458): 108%
Ephrin type-A receptor 2 (EPHA2, Homo sapiens, UniProt P29317): 104%
